Measurements gathered from unrelated publications.
Compare with care: the assays were run in different laboratories. Values joined by “and” are separate records of one study, mostly repeats; a detail may differ.
Cell line: UO-31

| SMILES | assay | setting | how to read | quantity | value |
| --- | --- | --- | --- | --- | --- |
| Cc1cc(C)n(C(=S)[S][Au][PH](CCCCCC[PH]([Au][S]C(=S)n2nc(C)cc2C)(c2ccccc2)c2ccccc2)(c2ccccc2)c2ccccc2)n1 | cell growth, NCI-60 screen | renal cancer |  | log10 TGI | > -4 |
| NNc1nc(-c2ccc(Cl)cc2)c2c(NC(=O)c3ccccc3)nnc-2[nH]1 | SRB | 10 µM, NCI60 single-dose screen | reference: untreated | cell growth | 88% |
| CCCN1CCN(c2ccc3[nH]c(-c4ccc5[nH]c(-c6cc(OC)c(OC)c(OC)c6)nc5c4)nc3c2)CC1 | SRB | 10 µM, 48 h |  | growth percent | 86.5% |
| Cc1cc(-c2ccccc2)n(-c2nc(-c3ccc(Cl)cc3)c3c(NC(=O)c4ccccc4)nnc-3[nH]2)n1 | SRB | 10 µM, NCI60 single-dose screen | reference: untreated | cell growth | 80.2% |
| CCOc1ccc(-c2nc3cc(-c4nc5cc(N6CCN(C)CC6)ccc5[nH]4)ccc3[nH]2)cc1OCC | SRB | 10 µM, 48 h |  | growth percent | 98.6% |
| Cn1cncc1C1=CN(c2ncnc3[nH]cnc23)CCS1 |  | renal cancer |  | GI50 | 22.4 µM |
| Cc1cc(=O)[nH]c(=O)n1Cc1cn(-c2c3ccccc3nc3ccccc23)nn1 | NCI60 single-dose screen | 10 µM |  | growth percentage | 82.6% |
| CCN(CC)c1ccc(C=NNC(=O)CSc2nc3ccccc3c(=O)n2Cc2ccc(S(N)(=O)=O)cc2)c(O)c1 | NCI five-dose screen |  |  | TGI | > 100 µM |
| O=C1NCCc2[nH]c(-c3ccncc3)cc21 | MTS | NCI60 panel |  | IC50 | 4.03 µM |
| C#C[C@@]1(O)[C@@H](CO)O[C@@H](n2cc(F)c3c(N)ncnc32)[C@@H]1O | SRB | NCI-60 screen |  | TGI | 2.48 µM |
| O=C(Nc1nnc2n3c(=S)[nH][nH]c3nc(-c3ccc(Cl)cc3)c1-2)c1ccccc1 | SRB | 10 µM, NCI60 single-dose screen | reference: untreated | cell growth | 91.3% |
| CCCCN1CCN(c2ccc3[nH]c(-c4ccc5[nH]c(-c6ccc(C(F)(F)F)cc6)nc5c4)nc3c2)CC1 | SRB | 10 µM, 48 h |  | growth percent | -82.8% |
| O=C1NC(c2ccccc2)(c2ccccc2)C(=O)N1Cc1cn(-c2cc3ccccc3oc2=O)nn1 | NCI60 single-dose screen | 10 µM |  | growth percentage | 70.2% |
| CCCN1CCN(c2ccc3[nH]c(-c4ccc5[nH]c(-c6ccc(OCC)c(OCC)c6)nc5c4)nc3c2)CC1 | SRB | 10 µM, 48 h |  | growth percent | 47.2% |
| CCCC(CCC)C(=O)OCc1cn(-c2c3ccccc3nc3ccccc23)nn1 | NCI60 single-dose screen | 10 µM |  | growth percentage | 85.4% |
| COc1ccc(OC)c(-c2nc3ccc(-c4nc5ccc(N6CCN(C)CC6)cc5[nH]4)cc3[nH]2)c1 | SRB | 10 µM, 48 h |  | growth percent | 75% |
| O=C(Nc1nnc2[nH]c(=S)[nH]c(-c3ccc(Cl)cc3)c1-2)c1ccccc1 | SRB | 10 µM, NCI60 single-dose screen | reference: untreated | cell growth | 90.5% |
| CCCCN1CCN(c2ccc3nc(-c4ccc5nc(-c6cc(OC)ccc6OC)[nH]c5c4)[nH]c3c2)CC1 | SRB | 10 µM, 48 h |  | growth percent | 78.5% |
| O=C(Nc1nnc2n3c(Cc4ccccc4)n[nH]c3nc(-c3ccc(Cl)cc3)c1-2)c1ccccc1 | SRB | 10 µM, NCI60 single-dose screen | reference: untreated | cell growth | 88.3% |
| C#C[C@@]1(O)[C@@H](CO)O[C@@H](n2cc(I)c3c(N)ncnc32)[C@@H]1O | SRB | NCI-60 screen |  | TGI | 3.3 µM and 3.07 µM |
